Assay results gathered from unrelated publications.
A part holds a random share of what one study measured. Changes are numbered by the printed parent chain.

Block 1
Target: Fragile X messenger ribonucleoprotein 1, C-terminal low-complexity region (Fmr1, Mus musculus, UniProt P35922)
Technique: RNA Bind-n-Seq
Molecule type: RNA
Sample: in vitro
Tested at: 200 nM
Notes: whole 134-nt RNA, ends assumed
Together with: 150 mM KCl
Reference: input library
Direction: higher = stronger binding
All sequences stand within: GGGAGUUCUACAGUCCGACGAUC … UGGAAUUCUCGGGUGUCAAGG
| Sequence | log2 enrichment |
| --- | --- |
| CACAGACAACACGCACCCACACAGACACAGAGGGAAGGGGUUGGGAUGGGGACAGAGUGCACAGCAGGGCGGGGUAGGACCCCAGCCCCU | 1.13 |
| AAGUCCUGUGCUACACAUCGUAUGUACCGAAUCGGGUUUGGGUUUGGGAAAAAGGGAAAGUAUUAUGUUACGCCGUUCGGAUCUGCACUU | 0.473 |
| CUGUGCUACACAUCGUAUGUACCGAAUCGGUUUUUUUGGGUUUUUUUGGGGUUUUUUUGGGGAAAGUAUUAUGUUACGCCGUUCGGAUCU | -0.22 |
| UGGGAGGUGGAUUUUGUUUAUUUUUUUAGCUCAUUUCCAGGGGUGGGAAUUUUUUUUUAAUAUGUGUCAUGAAUAGAGUUGUUUUUGAAA | 0.269 |
| UCCUGUGCUACACAUCGUAUGUACCGAAUCGGGUUUUUGGGUUUUUUUGGGAAAAAGGGAAAGUAUUAUGUUACGCCGUUCGGAUCUGCA | -0.1 |
| ACCAUGCAGGUGGGCAUCUGUGGGAAGUGGGGCAAGGGGGGGAUAGGGAGGGGGGUAACACUUUGGGAACAGGUGGUCCCAGGUCGUUUC | 1.12 |
| UUCUGCACCUCUGCUACCUAAAGAAGACCCAAUCUUCACAUAUUUAUCUAAACGGUUAGGAAGGAGUAUAGAUGACAUAGGUCACCUCAU | -0.049 |
| GUCCUGUGCUACACAUCGUAUGUACCGAAUCGGGGUUUUGGGGUUUUGGGGUUUUGGGAAAGUAUUAUGUUACGCCGUUCGGAUCUGCAC | 0.331 |
| UCAAGUCCUGUGCUACACAUCGUAUGUACCGAAUCGGGUUGGGGUUGGGUUGGGGAAAGUAUUAUGUUACGCCGUUCGGAUCUGCACUUC | 1.25 |

Block 2
Target: Hepatocyte nuclear factor 3-alpha (Foxa1, Mus musculus, UniProt P35582, residues 1-468, full length assumed)
Technique: EMSA with sequencing
Molecule type: double-stranded DNA, one strand shown
Sample: in vitro
Tested at: 10 and 20 nM
Notes: whole designed probe, mean of two concentrations, ends assumed
Reference: negative control set to 0
Direction: higher = stronger binding
All sequences stand within: GTGAGCGGTGCCCATTGATGGGGAAC … TTTCACTGGGATCGTGGGGAC
Residues (chain): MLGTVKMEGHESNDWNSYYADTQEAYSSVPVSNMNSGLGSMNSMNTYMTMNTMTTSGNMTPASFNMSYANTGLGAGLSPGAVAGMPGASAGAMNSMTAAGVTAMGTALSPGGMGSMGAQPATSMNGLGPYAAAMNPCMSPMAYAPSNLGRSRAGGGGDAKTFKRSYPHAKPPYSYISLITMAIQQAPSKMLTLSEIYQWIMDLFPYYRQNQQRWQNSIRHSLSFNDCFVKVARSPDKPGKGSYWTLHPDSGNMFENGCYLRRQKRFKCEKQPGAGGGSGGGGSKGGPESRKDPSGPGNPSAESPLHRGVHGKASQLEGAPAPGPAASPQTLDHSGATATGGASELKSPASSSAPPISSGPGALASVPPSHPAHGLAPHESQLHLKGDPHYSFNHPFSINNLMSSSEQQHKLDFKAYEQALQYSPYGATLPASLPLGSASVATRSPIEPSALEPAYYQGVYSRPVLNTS
| Sequence | normalised bound fraction |
| --- | --- |
| GTAACTGTGAGATTTCTGAATTTACAACCTCCCTACAGGAAGTACCAGGTGGCCACGAAAGGCAGCATGGTCCCCATCTCTAATTAAGCTAATGTAAACAAGTGCCACAAGATGGCGCCAAACCACAGATGAAACTGACGCCAATTTGGATTCTTTGGGTGGATGGATCTCCCAGAACTTCCAGCTGGCTAGA | 0.466 ratio |
| ATCTTCCCCCTCTTCCTTGCCCCACCAGCTCACCTTCCCGGGTTATTTGCAGATAGGAAAATAAATAAAGCCGGCATTCGTTAACCCTCTTCTGGCGCAAACTGCTGTTTGCTCTGGTCCTTTGGCGACGCCGATGAATCATGAGGCTCCGGGAGAGCAAAGCACCGTGTCAGGGCCATGATCCGGGGTGGCC | 0.408 ratio |
| ATCTTCCCCCTCTTCCCCCTCACGTCAGCTCACCTTCCCGGGTTATTTGCAGATAGGAAAATAAATAAAGCCGGCATTCGTTAACCCTCTTCTGGCGCAAACTGCTGTTTGCTCTGGATGAATCATGGTCCTTTGGCGACGCCAGGCTCCGGGAGAGCAAAGCACCGTGTCAGGGCCATGATCCGGGGTGGCC | 0.329 ratio |
| GCTCAGCTTCCTCATCTAAGGAGGCAATAAAACCTTCCACTATGTGGTCAGGATTACAAGATTTAAAGTATATGAAATCTGTAAGGCCCTTATGCAATTTAAGATGTTATTATCCTACTTTGCAGATGAATGAAAAATATTACTGAATCAGAGAAACTAAGGTTCAGAGACATAAAGTCACTTGCTGACGTTT | -0.0712 ratio |
| CTCATCTTAGATAGTAGAATCGCAGCATTTTTTTCTGCCGGTCTGAACTCAGGCACGCTATTTGTTCATCTACTTACTCAAACATGTATTGTGTGTTTACTCAGTGGCAGGCTCTGTCCTAGGTGCTGGGGATGGAGCAGTGCAGAGAGACAAAAACTCTGCTCTCATAAAGCTCACAATCTACAACCTGAGA | 0.456 ratio |

Block 3
Target: ABI1, truncated, D143A, DHFR fusion (Arabidopsis thaliana)
Technique: DHFR PCA, deep sequencing
Sample: yeast
Notes: methotrexate growth selection, single substitutions
Together with: (+)-ABA 58 µM
Reference: wild-type fitted maximum
Direction: higher = stronger binding
Starting sequence: PYL1, truncated, DHFR fusion (Arabidopsis thaliana); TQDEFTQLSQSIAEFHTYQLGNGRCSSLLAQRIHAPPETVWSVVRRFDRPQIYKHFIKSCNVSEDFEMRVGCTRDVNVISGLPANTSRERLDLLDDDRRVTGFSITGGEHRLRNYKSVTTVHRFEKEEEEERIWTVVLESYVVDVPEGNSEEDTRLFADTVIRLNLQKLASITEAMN; partner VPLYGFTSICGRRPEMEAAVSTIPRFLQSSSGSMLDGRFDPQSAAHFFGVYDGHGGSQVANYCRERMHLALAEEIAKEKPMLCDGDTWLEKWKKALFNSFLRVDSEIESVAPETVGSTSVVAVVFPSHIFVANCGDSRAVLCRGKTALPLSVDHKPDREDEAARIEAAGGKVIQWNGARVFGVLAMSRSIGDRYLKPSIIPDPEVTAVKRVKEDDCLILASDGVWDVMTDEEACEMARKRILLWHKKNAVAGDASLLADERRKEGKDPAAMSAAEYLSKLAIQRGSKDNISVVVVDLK
| Variant | relative binding score [%] |
| --- | --- |
| I79Y | 89.7 |
| V44S | -3.33 |
| V121A | 13.8 |
| S42K | 97.1 |
| R99V | -2 |
| T39L | 91.4 |
| T154A | 66 |
| H16W | -0.588 |
| R132M | 91.1 |
| E174K | 56.4 |
| I12E | 5.07 |
| A175Q | 88.5 |
| T173C | 89.3 |
| S140I | -14.3 |
| R49D | 45.6 |
| D65Q | 84.7 |
| V136R | 8.46 |
| N165T | 11.2 |
| A30P | 37.9 |
| G81Y | 19.1 |

Block 4
Molecule: B1 (ZMYND11 RING domain)
Technique: yeast two-hybrid
Sample: yeast
Notes: mostly zero background
Reference: not given
Direction: higher = stronger interaction
B1: ZMYND11 RING domain (UniProt Q15326); chain DEIDWETENHDWYCFECHLPGEVLICDLCFRVYHSKCLSDEFRLRDSSSPWQCPVCRSIKKKNTNKQEM
| target | lacZ reporter activity |
| --- | --- |
| BIRC6 UBC core domain (UniProt Q9NR09) | 0 |
| UBE2T UBC core domain (UniProt Q9NPD8) | 0 |
| UBE2M UBC core domain (UniProt P61081) | 0 |
| UBE2E3 UBC core domain (UniProt Q969T4) | 0 |
| UBE2B UBC core domain (UniProt P63146) | 0 |
| UBE2O UBC core domain (UniProt Q9C0C9) | 0 |
| UBE2S UBC core domain (UniProt Q16763) | 0 |
| UBE2L3 UBC core domain (UniProt P68036) | 0 |
| UBE2Z UBC core domain (UniProt Q9H832) | 0 |
| UBE2R2 UBC core domain (UniProt Q712K3) | 0 |

Some of these lines once more (block 3):
| Variant | relative binding score [%] |
| --- | --- |
| V44S | -3.33 |
| V121A | 13.8 |
| S42K | 97.1 |
| R99V | -2 |
| T39L | 91.4 |
| T154A | 66 |
| H16W | -0.588 |
